Results pooled from the literature.
Each numbered part is a random draw from the data of one study; scales do not carry over between parts.
Sequence of UniProt P35968 (whole entry, looked up): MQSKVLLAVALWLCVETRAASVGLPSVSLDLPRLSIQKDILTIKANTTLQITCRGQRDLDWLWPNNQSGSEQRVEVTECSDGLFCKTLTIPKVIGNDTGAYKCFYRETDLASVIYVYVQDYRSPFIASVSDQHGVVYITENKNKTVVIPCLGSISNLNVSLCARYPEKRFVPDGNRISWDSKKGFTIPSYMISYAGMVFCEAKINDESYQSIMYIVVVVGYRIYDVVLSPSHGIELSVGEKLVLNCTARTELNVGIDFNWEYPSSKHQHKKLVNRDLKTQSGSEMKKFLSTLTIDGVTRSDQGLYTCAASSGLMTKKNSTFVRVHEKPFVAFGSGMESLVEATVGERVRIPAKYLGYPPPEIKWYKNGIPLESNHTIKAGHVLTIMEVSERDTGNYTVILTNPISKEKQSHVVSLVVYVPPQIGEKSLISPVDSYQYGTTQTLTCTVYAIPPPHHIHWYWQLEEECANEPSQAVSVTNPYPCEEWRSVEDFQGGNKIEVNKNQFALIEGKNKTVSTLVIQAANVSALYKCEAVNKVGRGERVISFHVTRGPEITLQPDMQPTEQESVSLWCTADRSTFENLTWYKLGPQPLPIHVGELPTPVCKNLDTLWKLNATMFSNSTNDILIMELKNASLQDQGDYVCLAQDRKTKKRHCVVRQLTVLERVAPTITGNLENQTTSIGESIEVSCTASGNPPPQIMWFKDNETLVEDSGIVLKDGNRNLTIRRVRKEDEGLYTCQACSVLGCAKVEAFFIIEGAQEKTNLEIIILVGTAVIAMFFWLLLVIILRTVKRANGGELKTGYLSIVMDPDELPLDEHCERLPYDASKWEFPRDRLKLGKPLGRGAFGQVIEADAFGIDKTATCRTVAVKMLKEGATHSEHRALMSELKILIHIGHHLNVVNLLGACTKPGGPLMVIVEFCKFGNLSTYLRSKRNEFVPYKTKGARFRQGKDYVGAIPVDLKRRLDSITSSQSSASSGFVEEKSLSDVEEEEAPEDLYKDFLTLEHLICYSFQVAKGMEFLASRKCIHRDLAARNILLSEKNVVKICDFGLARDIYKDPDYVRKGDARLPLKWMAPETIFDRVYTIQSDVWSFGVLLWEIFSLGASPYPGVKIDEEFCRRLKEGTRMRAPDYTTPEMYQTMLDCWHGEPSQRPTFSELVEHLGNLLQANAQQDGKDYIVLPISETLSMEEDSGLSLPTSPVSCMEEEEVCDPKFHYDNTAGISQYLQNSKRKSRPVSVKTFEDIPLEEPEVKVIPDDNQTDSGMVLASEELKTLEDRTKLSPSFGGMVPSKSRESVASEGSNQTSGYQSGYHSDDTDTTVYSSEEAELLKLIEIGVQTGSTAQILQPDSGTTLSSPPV
Sequence of UniProt Q9Y6E0 (whole entry, looked up): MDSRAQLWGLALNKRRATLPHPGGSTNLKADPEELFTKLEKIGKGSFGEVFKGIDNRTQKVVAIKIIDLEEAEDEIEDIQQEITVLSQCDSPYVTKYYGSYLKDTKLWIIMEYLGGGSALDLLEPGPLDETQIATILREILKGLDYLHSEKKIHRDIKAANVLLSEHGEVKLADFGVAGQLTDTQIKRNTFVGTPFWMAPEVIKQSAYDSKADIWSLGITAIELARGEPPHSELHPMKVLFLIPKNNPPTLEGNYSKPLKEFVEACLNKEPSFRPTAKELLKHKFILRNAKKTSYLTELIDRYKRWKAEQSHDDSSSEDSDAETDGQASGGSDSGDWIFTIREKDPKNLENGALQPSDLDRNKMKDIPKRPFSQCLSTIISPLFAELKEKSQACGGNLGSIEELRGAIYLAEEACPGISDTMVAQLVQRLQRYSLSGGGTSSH
Sequence of UniProt P51956 (whole entry, looked up): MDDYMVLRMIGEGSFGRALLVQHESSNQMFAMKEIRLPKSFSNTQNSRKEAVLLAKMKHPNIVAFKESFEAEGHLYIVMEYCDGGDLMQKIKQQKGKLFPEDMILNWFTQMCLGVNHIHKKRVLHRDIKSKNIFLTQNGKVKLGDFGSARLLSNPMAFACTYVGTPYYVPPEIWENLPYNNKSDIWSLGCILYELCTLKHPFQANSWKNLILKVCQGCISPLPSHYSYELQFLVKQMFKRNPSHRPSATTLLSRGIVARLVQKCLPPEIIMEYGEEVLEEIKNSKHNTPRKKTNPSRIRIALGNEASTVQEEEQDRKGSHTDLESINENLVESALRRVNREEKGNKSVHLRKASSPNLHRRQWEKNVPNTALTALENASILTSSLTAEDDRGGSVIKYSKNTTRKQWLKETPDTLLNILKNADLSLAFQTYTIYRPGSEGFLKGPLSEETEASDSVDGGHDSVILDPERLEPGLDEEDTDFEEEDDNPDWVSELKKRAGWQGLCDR
Sequence of UniProt P21917 (whole entry, looked up): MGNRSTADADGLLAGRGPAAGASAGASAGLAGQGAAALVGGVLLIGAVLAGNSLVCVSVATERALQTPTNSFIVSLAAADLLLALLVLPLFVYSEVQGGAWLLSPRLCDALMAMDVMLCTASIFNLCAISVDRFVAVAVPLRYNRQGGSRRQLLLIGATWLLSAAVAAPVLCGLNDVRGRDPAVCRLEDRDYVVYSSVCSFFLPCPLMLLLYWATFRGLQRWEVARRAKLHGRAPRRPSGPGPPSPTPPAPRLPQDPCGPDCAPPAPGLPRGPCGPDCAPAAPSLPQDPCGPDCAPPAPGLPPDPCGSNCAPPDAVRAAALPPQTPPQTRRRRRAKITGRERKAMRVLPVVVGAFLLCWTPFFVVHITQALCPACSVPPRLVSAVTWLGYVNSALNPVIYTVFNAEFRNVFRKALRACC
Sequence of UniProt P14416 (whole entry, looked up): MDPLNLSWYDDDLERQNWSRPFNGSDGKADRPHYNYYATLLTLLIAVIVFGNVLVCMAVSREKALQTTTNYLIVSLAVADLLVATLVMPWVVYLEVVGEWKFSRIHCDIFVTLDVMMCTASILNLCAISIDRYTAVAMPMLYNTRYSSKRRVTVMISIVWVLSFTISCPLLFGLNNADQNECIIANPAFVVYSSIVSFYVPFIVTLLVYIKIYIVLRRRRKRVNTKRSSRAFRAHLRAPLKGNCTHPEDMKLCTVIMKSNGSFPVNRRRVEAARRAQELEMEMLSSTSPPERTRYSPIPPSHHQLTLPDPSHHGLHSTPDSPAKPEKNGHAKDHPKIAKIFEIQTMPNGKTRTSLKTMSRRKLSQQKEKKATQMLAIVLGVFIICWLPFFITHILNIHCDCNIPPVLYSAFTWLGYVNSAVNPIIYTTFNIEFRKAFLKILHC
Sequence of UniProt Q16566 (whole entry, looked up): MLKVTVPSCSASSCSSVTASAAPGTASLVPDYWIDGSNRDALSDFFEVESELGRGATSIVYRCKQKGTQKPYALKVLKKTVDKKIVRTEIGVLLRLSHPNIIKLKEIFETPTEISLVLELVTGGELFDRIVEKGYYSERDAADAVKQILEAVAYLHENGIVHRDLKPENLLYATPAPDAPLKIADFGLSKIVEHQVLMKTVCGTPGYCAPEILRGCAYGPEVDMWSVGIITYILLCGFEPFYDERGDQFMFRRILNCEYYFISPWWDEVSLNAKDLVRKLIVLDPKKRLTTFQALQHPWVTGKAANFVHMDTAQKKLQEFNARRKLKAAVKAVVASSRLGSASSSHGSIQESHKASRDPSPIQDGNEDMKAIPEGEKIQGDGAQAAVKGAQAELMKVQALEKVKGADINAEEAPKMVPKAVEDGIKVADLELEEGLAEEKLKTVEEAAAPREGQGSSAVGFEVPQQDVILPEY
Sequence of UniProt P11362 (whole entry, looked up): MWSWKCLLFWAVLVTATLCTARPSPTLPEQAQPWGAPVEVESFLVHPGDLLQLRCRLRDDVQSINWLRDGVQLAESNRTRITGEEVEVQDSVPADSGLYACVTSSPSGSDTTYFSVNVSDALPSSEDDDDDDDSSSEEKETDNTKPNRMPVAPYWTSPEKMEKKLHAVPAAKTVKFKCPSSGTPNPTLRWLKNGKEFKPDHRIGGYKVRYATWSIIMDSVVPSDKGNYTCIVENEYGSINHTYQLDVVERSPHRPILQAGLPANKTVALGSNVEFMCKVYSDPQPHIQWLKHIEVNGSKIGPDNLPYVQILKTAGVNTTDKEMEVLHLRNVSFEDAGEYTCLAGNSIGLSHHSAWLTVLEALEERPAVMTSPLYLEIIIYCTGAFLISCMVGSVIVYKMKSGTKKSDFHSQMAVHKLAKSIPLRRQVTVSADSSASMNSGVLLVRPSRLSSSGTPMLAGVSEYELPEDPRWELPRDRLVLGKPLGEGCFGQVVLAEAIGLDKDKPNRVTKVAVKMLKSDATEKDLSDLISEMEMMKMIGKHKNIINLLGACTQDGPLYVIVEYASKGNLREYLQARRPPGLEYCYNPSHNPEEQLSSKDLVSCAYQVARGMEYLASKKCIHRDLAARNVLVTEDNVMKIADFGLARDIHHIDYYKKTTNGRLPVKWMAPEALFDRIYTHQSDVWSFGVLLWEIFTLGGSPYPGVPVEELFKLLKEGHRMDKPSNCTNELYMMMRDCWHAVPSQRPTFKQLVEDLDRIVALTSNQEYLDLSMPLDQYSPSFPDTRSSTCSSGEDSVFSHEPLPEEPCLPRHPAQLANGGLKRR

Set 1
Structure (SMILES): CCC(=O)Nc1ccc2ncnc(Nc3cccc(Br)c3)c2c1
Read-out: enzyme activity
Mode: inhibitor
Tested at: 0.5 µM
Reference: control
target	remaining activity [%]
Cyclin-dependent kinase 1, with cyclin A (CDK1, Homo sapiens, UniProt P06493)	87.9
MAPK11 (Homo sapiens, UniProt Q15759)	92.9
Cyclin-dependent kinase 9, with cyclin K (CDK9, Homo sapiens, UniProt P50750)	94.1
ROCK1 (Homo sapiens, UniProt Q13464)	99.5
MAP2K1 (Homo sapiens, UniProt Q02750)	105
MARK4 (Homo sapiens, UniProt Q96L34)	80.2
RPS6KA4 (Homo sapiens, UniProt O75676)	106
MARK2 (Homo sapiens, UniProt Q7KZI7)	73.5
NEK3 (Homo sapiens, UniProt P51956)	99.6
PNCK (Homo sapiens, UniProt Q6P2M8)	96
PAK3 (Homo sapiens, UniProt O75914)	105
GRK4 (Homo sapiens, UniProt P32298)	96.2
CAMK4 (Homo sapiens, UniProt Q16566)	103
MAPK1 (Homo sapiens, UniProt P28482)	77.7
MINK1 (Homo sapiens, UniProt Q8N4C8)	95.8

Set 2
SMILES: CCC(=O)N[C@@H]1CC[C@H](C(=O)N(C)c2ccc(-c3nc4ccccc4o3)cc2)C1
Read-out: binding
Technique: radioligand binding
Tested at: 10 µM
target	inhibition [%]
ADRA2A (Homo sapiens, UniProt P08913)	11.2
DRD4 (Homo sapiens, UniProt P21917)	16.4
ADRB1 (Homo sapiens, UniProt P08588)	-4.55
HTR2B (Homo sapiens, UniProt P41595)	19.1
SIGMAR1 (Homo sapiens, UniProt Q99720)	38.3
DRD2 (Homo sapiens, UniProt P14416)	18.6
CHRM5 (Homo sapiens, UniProt P08912)	15.4

Set 3
Structure (SMILES): C=CC(=O)N1CCC[C@@H](n2nc(-c3ccc(Oc4ccccc4)cc3)c3c(N)ncnc32)C1
Mode: inhibitor
Tested at: 1 µM
target	read-out	inhibition [%]
FGFR1 (Homo sapiens, UniProt P11362)	enzyme activity	61
NTRK1 (Homo sapiens, UniProt P04629)		9
STK4 (Homo sapiens, UniProt Q13043)		9
MKNK2 (Homo sapiens, UniProt Q9HBH9)		49
TSSK1B (Homo sapiens, UniProt Q9BXA7)	enzyme activity	14
STK24 (Homo sapiens, UniProt Q9Y6E0)	enzyme activity	21
RIPK4 (Homo sapiens, UniProt P57078)	enzyme activity	9
RET (Homo sapiens, UniProt P07949, V804M)	enzyme activity	8
KDR (Homo sapiens, UniProt P35968)	enzyme activity	51

Set 4
Target: Calcium/calmodulin-dependent protein kinase type II subunit alpha (CAMK2A, Homo sapiens, UniProt Q9UQM7)
Sequence of UniProt Q9UQM7 (whole entry, looked up): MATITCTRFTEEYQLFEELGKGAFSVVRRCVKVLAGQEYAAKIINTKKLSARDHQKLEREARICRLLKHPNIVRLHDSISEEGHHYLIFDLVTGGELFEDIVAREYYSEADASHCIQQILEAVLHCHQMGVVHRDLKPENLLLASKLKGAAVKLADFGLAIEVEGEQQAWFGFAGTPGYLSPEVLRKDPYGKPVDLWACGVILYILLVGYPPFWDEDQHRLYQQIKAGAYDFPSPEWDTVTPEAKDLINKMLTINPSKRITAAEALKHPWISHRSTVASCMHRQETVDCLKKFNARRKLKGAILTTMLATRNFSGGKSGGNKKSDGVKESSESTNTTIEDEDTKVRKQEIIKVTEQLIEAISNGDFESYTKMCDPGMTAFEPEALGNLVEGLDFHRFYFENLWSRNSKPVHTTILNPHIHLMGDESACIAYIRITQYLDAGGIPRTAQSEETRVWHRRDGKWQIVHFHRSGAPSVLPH
Read-out: enzyme activity
Mode: inhibitor
Tested at: 10 µM
SMILES	inhibition [%]
O=c1c(O)c(-c2ccccc2)oc2ccccc12	-13
O=C(O)C(O)Cc1ccccc1 (racemic)	-7
COc1cc([C@@H]2[C@H]3CO[C@@]4(O)C(=O)[C@@H]2C=C([C@H]2Oc5cc(O)cc(O)c5C(=O)[C@@H]2O)[C@@H]34)ccc1O	7
Nc1ccn([C@@H]2O[C@H](CO)[C@@H](O)[C@H]2O)c(=O)n1	3
C[C@@H]1[C@H](O)[C@@H](C)/C=C/C=C/C=C/C=C/C=C/C=C/C=C/[C@H](O[C@@H]2O[C@H](C)[C@@H](O)[C@H](N)[C@@H]2O)C[C@@H]2O[C@](O)(C[C@@H](O)C[C@@H](O)[C@H](O)CC[C@@H](O)C[C@@H](O)CC(=O)O[C@H]1C)C[C@H](O)[C@H]2C(=O)O	-5
O=c1cc(-c2ccc(O)c(O)c2)oc2c([C@@H]3O[C@H](CO)[C@@H](O)[C@H](O)[C@H]3O[C@H]3O[C@@H](CO)[C@@H](O)[C@@H](O)[C@@H]3O)c(O)cc(O)c12	-21
O=C(CCCCC(=O)Nc1c(I)cc(I)c(C(=O)O)c1I)Nc1c(I)cc(I)c(C(=O)O)c1I	-7
CCCCOC(=O)c1ccc(N)cc1	1
Nc1nc(N)nc(-c2cc(Cl)ccc2Cl)n1	4
OC[C@H]1O[C@@H](Oc2cc3c(O)cc(O)cc3[o+]c2-c2cc(O)c(O)c(O)c2)[C@H](O)[C@@H](O)[C@@H]1O	8
N[C@@H](CO)C(=O)O	-10
Cc1cnc(C)cn1	-44

For quick reference, copied from above (set 1):
target	remaining activity [%]
PNCK (Homo sapiens, UniProt Q6P2M8)	96
PAK3 (Homo sapiens, UniProt O75914)	105
GRK4 (Homo sapiens, UniProt P32298)	96.2
